Measurements pooled from the literature.
Compare with care: the assays were run in different laboratories. ± gives the spread as reported.
Target: Prothrombin (F2, Homo sapiens, UniProt P00734)
Mode: inhibitor

Structure (SMILES)	assay	conditions	endpoint	value
O=C(Nc1ccc(C(=O)Nc2ccc(C(=O)Nc3ccc(S(=O)(=O)O)c4cc(S(=O)(=O)O)cc(S(=O)(=O)O)c34)cc2)cc1)Nc1ccc(C(=O)Nc2ccc(C(=O)Nc3ccc(S(=O)(=O)O)c4cc(S(=O)(=O)O)cc(S(=O)(=O)O)c34)cc2)cc1	enzyme activity, absorbance		IC50	> 100 µM
O=C1C[C@@H](c2ccc(O)cc2)Oc2cc(O[C@@H]3O[C@H](CO)[C@@H](O)[C@H](O)[C@H]3O)ccc21	enzyme activity, fluorescence	with preincubation	IC50	> 100 µM
Cc1cc(-c2ccc(/N=N/c3ccc4c(S(=O)(=O)O)cc(S(=O)(=O)O)c(N)c4c3O)c(C)c2)ccc1/N=N/c1ccc2c(S(=O)(=O)O)cc(S(=O)(=O)O)c(N)c2c1O	enzyme activity, absorbance		IC50	~8 µM
CC[C@H](C)[C@H](NC(=O)[C@@H]1CSSC[C@H](NC(=O)[C@H](Cc2ccc(O)cc2)NC(=O)CN)C(=O)N[C@@H](CO)C(=O)N[C@@H](CCCNC(=N)N)C(=O)N[C@@H](CO)C(=O)N[C@@H](Cc2ccc(O)cc2)C(=O)N2CCC[C@H]2C(=O)N2CCC[C@H]2C(=O)N[C@@H](C(C)C)C(=O)N1)C(=O)N1CCC[C@H]1C(=O)N[C@@H](CC(=O)O)C(=O)O	enzyme activity		Ki	384 µM
CN(C(=O)c1ccn2ncc(-c3ccc(C(N)=O)cc3)c2c1)c1ccc(C#N)cn1	enzyme activity		IC50	> 30 µM
CC(C)CCC[C@@H](C)[C@H]1CC[C@H]2[C@@H]3CC=C4C[C@@H](OS(=O)(=O)O)CC[C@]4(C)[C@H]3CC[C@]12C	fibrinogen clotting, turbidity	pH 7.4	IC50	176 ± 17.5 µM
C=CC(C)(C)c1cc(/C=C/C(=O)c2ccc(O)cc2)c(OC)cc1O	enzyme activity		Ki	12.2 µM
Cc1ccc(C(=O)Nc2ccc(CP(=O)(O)O)cc2CP(=O)(O)O)cc1NC(=O)c1cccc(NC(=O)Nc2cccc(C(=O)Nc3cc(C(=O)Nc4ccc(CP(=O)(O)O)cc4CP(=O)(O)O)ccc3C)c2)c1	enzyme activity, absorbance		IC50	> 500 µM
COc1c(/C=C/C(=O)c2ccc(O)cc2)ccc(O)c1O	enzyme activity, fluorescence	with preincubation	IC50	36.9 µM
N=C(N)NCCC[C@@H]1NC(=O)C[C@@H]2CCCN2C(=O)CN(Cc2ccccc2CO)Cc2ccccc2CSC[C@@H](C(N)=O)NC1=O	enzyme activity, fluorescence		Ki	0.042 µM
